Measurements of several laboratories.
Parts stem from different laboratories: compare values within a part only. “And” joins repeats or separate records; there may be more than shown.
Chain of UniProt Q5XXA6 (whole entry, unmodified, looked up): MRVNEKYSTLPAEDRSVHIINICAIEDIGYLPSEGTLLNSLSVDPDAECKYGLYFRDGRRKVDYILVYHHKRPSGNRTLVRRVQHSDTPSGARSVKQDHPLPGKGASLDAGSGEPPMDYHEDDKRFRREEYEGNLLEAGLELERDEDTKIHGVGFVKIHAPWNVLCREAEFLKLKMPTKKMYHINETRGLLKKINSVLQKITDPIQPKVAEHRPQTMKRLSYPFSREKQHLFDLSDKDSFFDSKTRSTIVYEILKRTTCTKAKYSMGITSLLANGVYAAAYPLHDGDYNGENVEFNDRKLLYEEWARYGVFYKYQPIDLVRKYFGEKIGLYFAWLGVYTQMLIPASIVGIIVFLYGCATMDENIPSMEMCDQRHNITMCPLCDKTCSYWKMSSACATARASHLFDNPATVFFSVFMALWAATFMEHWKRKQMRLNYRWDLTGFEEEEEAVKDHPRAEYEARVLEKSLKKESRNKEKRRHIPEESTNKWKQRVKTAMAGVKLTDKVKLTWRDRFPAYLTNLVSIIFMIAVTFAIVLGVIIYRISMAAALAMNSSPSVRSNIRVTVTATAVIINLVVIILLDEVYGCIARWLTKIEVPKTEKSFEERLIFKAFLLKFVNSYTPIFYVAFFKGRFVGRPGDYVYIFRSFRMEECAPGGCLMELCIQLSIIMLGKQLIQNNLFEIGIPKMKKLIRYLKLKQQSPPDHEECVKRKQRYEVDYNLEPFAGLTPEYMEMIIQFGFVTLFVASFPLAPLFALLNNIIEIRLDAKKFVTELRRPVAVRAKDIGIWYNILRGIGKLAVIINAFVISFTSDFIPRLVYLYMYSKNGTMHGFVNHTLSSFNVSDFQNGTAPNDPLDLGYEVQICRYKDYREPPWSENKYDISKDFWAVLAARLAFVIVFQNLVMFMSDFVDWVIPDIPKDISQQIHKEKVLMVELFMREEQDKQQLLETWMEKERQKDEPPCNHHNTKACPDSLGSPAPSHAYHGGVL
Chain of UniProt Q9H3N8 (whole entry, looked up): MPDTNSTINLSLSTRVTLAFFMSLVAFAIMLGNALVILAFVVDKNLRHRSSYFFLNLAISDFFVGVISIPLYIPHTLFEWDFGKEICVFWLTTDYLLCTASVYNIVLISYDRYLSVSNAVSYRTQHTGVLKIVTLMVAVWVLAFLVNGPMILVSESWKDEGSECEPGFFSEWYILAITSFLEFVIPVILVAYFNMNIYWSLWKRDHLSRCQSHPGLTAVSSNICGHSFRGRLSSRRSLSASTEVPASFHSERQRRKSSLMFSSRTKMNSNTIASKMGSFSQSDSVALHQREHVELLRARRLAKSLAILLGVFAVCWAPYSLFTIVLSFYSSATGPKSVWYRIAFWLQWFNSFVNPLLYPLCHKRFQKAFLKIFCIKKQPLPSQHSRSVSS
Chain of UniProt P35368 (whole entry, looked up): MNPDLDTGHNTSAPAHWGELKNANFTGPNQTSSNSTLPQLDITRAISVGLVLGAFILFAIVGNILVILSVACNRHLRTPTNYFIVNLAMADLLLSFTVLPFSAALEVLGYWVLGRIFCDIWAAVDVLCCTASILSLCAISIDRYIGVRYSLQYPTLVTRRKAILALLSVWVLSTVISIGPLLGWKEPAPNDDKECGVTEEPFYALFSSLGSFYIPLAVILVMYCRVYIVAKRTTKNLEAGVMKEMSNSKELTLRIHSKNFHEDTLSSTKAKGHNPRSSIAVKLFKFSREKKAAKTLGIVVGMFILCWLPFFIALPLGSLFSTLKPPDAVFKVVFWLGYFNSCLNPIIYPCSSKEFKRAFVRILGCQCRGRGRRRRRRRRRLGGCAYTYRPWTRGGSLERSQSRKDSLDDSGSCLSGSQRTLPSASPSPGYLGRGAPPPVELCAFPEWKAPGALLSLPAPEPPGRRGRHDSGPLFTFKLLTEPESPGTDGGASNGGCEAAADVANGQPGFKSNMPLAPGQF

Set 1
Target: Cyclin-dependent kinase 6, with cyclin D1 (CDK6, Homo sapiens, UniProt Q00534)
Chain of UniProt Q00534 (whole entry, looked up): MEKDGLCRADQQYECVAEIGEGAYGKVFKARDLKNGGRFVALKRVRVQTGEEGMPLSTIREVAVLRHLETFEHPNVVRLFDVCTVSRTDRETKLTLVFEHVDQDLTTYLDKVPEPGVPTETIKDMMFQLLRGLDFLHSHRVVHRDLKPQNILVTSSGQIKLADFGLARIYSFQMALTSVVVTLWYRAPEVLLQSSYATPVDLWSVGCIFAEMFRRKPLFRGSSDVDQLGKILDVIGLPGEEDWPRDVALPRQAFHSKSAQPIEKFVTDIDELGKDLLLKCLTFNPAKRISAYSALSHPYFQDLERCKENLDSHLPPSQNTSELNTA
Effect on: enzyme activity
Mode: inhibitor
Concentration: 0.5 µM
Relative to: control
Structure (SMILES)	remaining activity [%]
Nc1ncnc2c1cnn2-c1ccccc1	94.7
CC#CC(=O)Nc1cc2c(Nc3ccc(F)c(Cl)c3)ncnc2cn1	99
CCc1[nH]c(-c2ccc(OC)cc2)nc1-c1ccncc1	101
NC(=O)c1ccc(N(C(N)=O)c2c(F)cccc2F)nc1-c1ccc(F)cc1F	95.1
COc1cc(Nc2c(C#N)cnc3cc(OCCCN4CCN(C)CC4)c(OC)cc23)c(Cl)cc1Cl	99.4
CC(C)(C)n1nc(Cc2cccc3ccccc23)c2c(N)ncnc21	98.6
Cc1cc(Nc2nc(-c3ccccc3)nc3ccccc23)n[nH]1	85.5
Oc1ccc(Nc2nc(-c3ccc(Cl)cc3)cs2)cc1	101
Nc1nccc(-c2c(-c3ccc(F)cc3)ncn2C2CCNCC2)n1	101
N#CC(=C(N)Sc1ccc(N)cc1)c1ccccc1C(F)(F)F	98
Cc1ccc(NC2=CC(=O)c3sc(C)nc3C2=O)cc1	101
O=C1Cc2c([nH]c3ccc([N+](=O)[O-])cc23)-c2ccccc2N1	16.8

Set 2
Target: Prothrombin, mature alpha-thrombin (F2, Homo sapiens, UniProt P00734)
Method: aptamer microarray, sandwich
Molecule type: DNA with 2'F-ANA
Sample: in vitro
Concentration: 200 nM
Setting: whole 15-mer aptamer, many near background
With: Cy3 exosite-II aptamer, 400 nM
Direction: higher = stronger binding
Oligonucleotide: GGTTGGTGTGGTTGG
Modification	mean fluorescence intensity [a.u.]
2'F-ANA at 3 5 7 12 14 15	72.9
2'F-ANA at 1 2 5 6 7 12 14	48
2'F-ANA at 6 8 10 15	147
2'F-ANA at 1 3 4 7 10 11	63
2'F-ANA at 6 7 8 10 11 12 13 14	101
2'F-ANA at 8 9 10 11 14	109
2'F-ANA at 1 4 5 6 7 8 9 10 11 13	61.2
2'F-ANA at 2 4 5 6 7 8 10 15	81.7

Set 3
SMILES: CC(C)n1cnc(-c2ccc(F)cc2)c1-c1ncc(C(=O)Nc2ccc(N3CCN(C)CC3)cc2)[nH]1
method	refers to	species	dose	setting	patients with adverse event [%]
–	prostatic calcification, maximum grade 4	idiopathic pulmonary fibrosis patients	dose not given	all compound arms pooled	0
Phase 2a trial	blood lactate dehydrogenase increased	human, idiopathic pulmonary fibrosis	30 mg once daily	grade 2	0
Phase 2a trial	blood urea increased	human, idiopathic pulmonary fibrosis	all compound arms total	grade 4	0
Phase 2a trial	blood glucose increased	human, idiopathic pulmonary fibrosis	30 mg once daily	grade 1	0

Other studies, line by line
Structure (SMILES)	tested on	test	setting	scale	measurement	result
O=C(NNS(=O)(=O)c1ccccc1F)c1cc(F)cc(-c2ccccn2)c1	HRH4 (Homo sapiens, UniProt Q9H3N8)	cell-free assay	10 µM	–	inhibition	-2.44%
CCc1c(C)nc(SCC(=O)Nc2nc(-c3ccc(OC)cc3)cs2)[nH]c1=O	Anoctamin-1 (ANO1, Homo sapiens, UniProt Q5XXA6, del476-501)	ion current, patch clamp	10 µM	relative to: before drug	normalized current	0.56 and 0.584 and 0.628 and 0.603 and 0.622
Cc1cc2c(C(N)=O)c(N)n(-c3c(C)ccc(O)c3C)c2nc1C	biomarker-negative wild-type cell lines	cell growth	168 h	–	IC50	1030 nM
COc1cc(-c2cn(C3CCc4ccccc4N(CC(F)(F)F)C3=O)nn2)ccc1-n1ccc(C)n1 (stereo not shown)	ADRA1B (Homo sapiens, UniProt P35368)	binding, radioligand binding	–	–	Ki	> 10000 nM

For quick reference, copied from above (set 2):
Modification	mean fluorescence intensity [a.u.]
2'F-ANA at 2 4 5 6 7 8 10 15	81.7
2'F-ANA at 6 8 10 15	147
2'F-ANA at 1 3 4 7 10 11	63
